Measurements gathered from unrelated publications.
Protocols differ between the studies behind these lines.
Target: Mitogen-activated protein kinase 4 (MAPK4, Homo sapiens, UniProt P31152)

Structure (SMILES)	test	conditions	how to read	measurement	value
CC(C)=CC1OC(C)(C)C2C=C3C(=O)C(Cl)=CC(O)C3C3C(O)C4OC4C(=O)C132 (stereo not drawn)	cell-free assay, competition with immobilised ligand	10 µM		remaining binding	77%
COc1cc(Nc2nccc(-c3cnn4nc(OC)ccc34)n2)cc(C(F)(F)F)c1	binding, competition with immobilised ligand	1 µM		remaining binding	88%
Nc1ncc2c(n1)-c1c([nH]c3ccc(C4=CCOCC4)cc13)CCC2	binding, competition with immobilised ligand	1 µM		remaining binding	100%
C=CC(=O)N1CCCC(n2c(=O)c3ncccc3n(Cc3ccc(Oc4ccccc4)cc3)c2=O)C1 (stereo not drawn)	cell-free assay, competition with immobilised ligand	1 µM		remaining binding	99%
Cc1ccc(-c2c(/C=C(\C#N)C(=O)NC(C)C)n(CCCO)c3ncnc(N)c23)cc1	cell-free assay, competition with immobilised ligand	1 µM		remaining binding	90%
COc1cc(Nc2nc(C)cc(-c3cnn4nc(OC)ccc34)n2)cc(C(F)(F)F)c1	inhibitor	1 µM, ERK4	reference: control	remaining activity	100%
C=CC(=O)N1CCc2ccc(-n3c(=O)ccc4cnc5ccc(-c6cnn(C)c6)cc5c43)cc21	KINOMEscan	1 µM	reference: DMSO control	remaining binding	100%
CNC(=O)C1CCN(c2cc(C)c(F)cc2NC(=O)c2ccc(-c3cc(O)ccc3C)c(C)c2)CC1	binding, competition with immobilised ligand	1 µM		remaining binding	99%
CCN1CCN(Cc2ccc(C(=O)Nc3ccc(C)c(NCc4cnc5[nH]ccc5c4OC)c3)cc2C(F)(F)F)CC1	binding, competition with immobilised ligand	1 µM		remaining binding	100%
CNC1C[S+]2CC[S+]3CC[S+](C1)[Ru-4]321([N]=C=S)[n]2c3ccc(OC)cc3c3c4c(c5cc(F)c[n+]1c5c32)C(=O)NC4=O (stereo not drawn)	KinomeScan	0.1 µM	reference: untreated	remaining binding	86%
COc1c(Cl)cccc1Nc1c(-c2ccncc2C#C[C@@]2(C)CCCN2C(=O)/C=C/CN(C)C)[nH]c2c1C(=O)NCC2	binding, competition with immobilised ligand	3 µM		remaining binding	100%
Cc1cnc2nc1Nc1cccc(c1)COC/C=C/COCc1cc(ccc1OCCN1CCOCC1)N2	binding, competition with immobilised ligand	0.1 µM		remaining binding	100%

Repeated from above:
Structure (SMILES)	test	conditions	how to read	measurement	value
CC(C)=CC1OC(C)(C)C2C=C3C(=O)C(Cl)=CC(O)C3C3C(O)C4OC4C(=O)C132 (stereo not drawn)	cell-free assay, competition with immobilised ligand	10 µM		remaining binding	77%
